# Assay results from different studies.
# A part holds a random share of what one study measured. Changes are numbered by the printed parent chain.

# Series 1 — target: CCNF, cyclin fold, Cln2 fusion (human); technique: yeast growth competition, sequencing; matrix: yeast; notes: strong parent motif; baseline: not given; reading: higher = stronger binding
# Starting sequence: DOT1L docking peptide (human); SEAKRRIVFTITT; partner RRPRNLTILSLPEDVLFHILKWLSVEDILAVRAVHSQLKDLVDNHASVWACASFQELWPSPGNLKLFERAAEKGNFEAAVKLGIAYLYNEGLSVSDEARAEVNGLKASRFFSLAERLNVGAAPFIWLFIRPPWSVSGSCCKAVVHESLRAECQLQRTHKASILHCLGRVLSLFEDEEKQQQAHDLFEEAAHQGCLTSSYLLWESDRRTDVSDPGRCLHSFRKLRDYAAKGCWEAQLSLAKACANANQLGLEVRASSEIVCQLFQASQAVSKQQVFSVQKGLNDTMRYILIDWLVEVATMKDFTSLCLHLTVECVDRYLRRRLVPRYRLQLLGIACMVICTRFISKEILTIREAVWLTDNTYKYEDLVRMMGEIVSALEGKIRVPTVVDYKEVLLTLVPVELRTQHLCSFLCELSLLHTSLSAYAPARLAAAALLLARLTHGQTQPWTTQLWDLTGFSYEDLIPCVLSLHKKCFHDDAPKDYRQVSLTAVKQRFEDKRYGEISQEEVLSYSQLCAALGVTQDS
Variant,normalised enrichment score
SEAKRRIVFTATT [I11A],4.32
SEAKRRIVATITT [F9A],1
SAAKRRIVFTITT [E2A],5.61
SEAKRAIVFTITT [R6A],1.62
SEAARRIVFTITT [K4A],3.4
SEAKRRIVFTITA [T13A],4.11

# Series 2 — technique: RNA Bind-n-Seq; form: RNA; matrix: in vitro; tested at: 200 nM; notes: whole 134-nt RNA, ends assumed; added: 150 mM LiCl; baseline: input library; reading: higher = stronger binding; all molecules: 7-deaza-guanosine replaces G
# Target: Ras GTPase-activating protein-binding protein 1, full length (G3BP1, Homo sapiens, UniProt Q13283)
# UniProt Q13283, sequence (whole entry, looked up): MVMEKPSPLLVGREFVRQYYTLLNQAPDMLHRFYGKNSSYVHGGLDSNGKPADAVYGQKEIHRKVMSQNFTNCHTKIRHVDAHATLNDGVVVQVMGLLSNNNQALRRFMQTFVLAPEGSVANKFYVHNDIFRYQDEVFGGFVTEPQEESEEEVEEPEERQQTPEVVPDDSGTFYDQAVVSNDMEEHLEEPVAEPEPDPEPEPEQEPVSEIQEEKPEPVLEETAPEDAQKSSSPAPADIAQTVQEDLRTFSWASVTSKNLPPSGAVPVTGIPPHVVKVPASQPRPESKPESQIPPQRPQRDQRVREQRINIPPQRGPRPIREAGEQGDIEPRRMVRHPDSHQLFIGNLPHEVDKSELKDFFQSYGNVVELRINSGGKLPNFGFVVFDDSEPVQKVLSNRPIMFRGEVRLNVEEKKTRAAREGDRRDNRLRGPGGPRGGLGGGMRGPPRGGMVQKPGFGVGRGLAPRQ
# Shared flanks, not repeated: GGGAGUUCUACAGUCCGACGAUC … UGGAAUUCUCGGGUGUCAAGG
Strand,log2 enrichment
UCAAGUCCUGUGCUACACAUCGUAUGUACCGAAUCGGGCCGGGGCCGGGGCCGGGAAAGUAUUAUGUUACGCCGUUCGGAUCUGCACUUC,0.068
GAGUCCGGUUCGUGUUCGUCCGCGGAGAUCUCUCUCAUCUCGCUCGGCUGCGGGAAAUCGGGCUGAAGCGACUGAGUCCGCGAUGGAGGU,-1.04
AAGUCCUGUGCUACACAUCGUAUGUACCGAAUCGGGGAAAGGGAAAGGGGAAAGGGGAAAGUAUUAUGUUACGCCGUUCGGAUCUGCACU,0.696
UUACUACCUCCGCCUUCAUUUCCGUCAGCAAUCCCGGCGCGGGCUCCCCGGCCCCCGCCAGCCCGCCUCCCCUCGCUGUGCCCGGGACCG,1.64
AGAGAAAAGGAACAGUUCCGUAAGCUCUUUAUUGGUGGCUUAAGCUUUGAAACCACAGAAGAAAGUUUGAGGAACUACUACGAACAAUGG,-2.93
CUCAAGUCCUGUGCUACACAUCGUAUGUACCGAAUCGGUUUGGAGGAAAAAGGAAAGUAUUAUGUUACGCCGUUCGGAUCUGCACUUCCA,-0.116
CCUCAAGUCCUGUGCUACACAUCGUAUGUACCGAAUCGGUGGGGUGGGGUGGGAAAGUAUUAUGUUACGCCGUUCGGAUCUGCACUUCCA,-0.31
AGUCCUGUGCUACACAUCGUAUGUACCGAAUCGGGAAAAAAAGGGUUUUUGGGAGGGAAAGUAUUAUGUUACGCCGUUCGGAUCUGCACU,-1.16
UGGGAGGUGGAUUUUGUUUAUUUUUUUAGAUCAUUUCCAGGGGUGGGAAUUUUUUUUUAAUAUGUGUCAUGAAUAAAGUUGUUUUUGAAA,-0.716
AAGUCCUGUGCUACACAUCGUAUGUACCGAAUCGGGGAAAAGGGAAAAGGGAAAAGGAAAGUAUUAUGUUACGCCGUUCGGAUCUGCACU,0.147
CAAGUCCUGUGCUACACAUCGUAUGUACCGAAUCGGUUUUUUUGGUGGAAAAAGGAAAGUAUUAUGUUACGCCGUUCGGAUCUGCACUUC,-0.833

# Series 3 — technique: RNAcompete; form: RNA; matrix: in vitro; tested at: 20 nM; notes: 7-mer, probes averaged, single round; baseline: mean of 7-mers; reading: higher = stronger binding
# Target: PABPC1L2, full length, GST fusion (mouse, UniProt A0ABA7IW68)
# Construct (chain): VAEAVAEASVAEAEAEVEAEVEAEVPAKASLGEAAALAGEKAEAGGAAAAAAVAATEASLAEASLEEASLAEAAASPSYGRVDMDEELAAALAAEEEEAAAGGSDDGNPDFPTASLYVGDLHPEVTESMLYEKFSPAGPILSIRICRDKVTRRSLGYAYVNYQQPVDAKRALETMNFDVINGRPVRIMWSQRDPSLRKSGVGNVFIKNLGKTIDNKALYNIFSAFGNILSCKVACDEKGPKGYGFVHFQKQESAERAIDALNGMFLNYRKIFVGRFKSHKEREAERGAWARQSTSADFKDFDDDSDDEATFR
Strand,7-mer Z-score
AGUCCUC,-0.258
GGUCUCC,-0.293
UAUCCAA,-0.146
GUACAUG,-0.106
UGAUCUA,-0.159
GCCUUUG,-0.316
GACAUCA,-0.108
AUAGAGG,0.0189
UAUUGGU,-0.159
CCCCGUA,-0.365

# Other studies, line by line
Substance,target,assay,test system,conditions,how to read,measurement,value
"PhoQ, residues 284 288 289 292 302 303 AGGLSV","PhoP, residues 12 14 15 18 19 TPWLV (Escherichia coli, UniProt P23836)","Sort-seq, item: YFP reporter",E. coli,"PhoQ-PhoP variant library, added: 10 µM Mg2+","baseline: high Mg2+ state, higher = stronger signaling",fold induction,0.498

# Repeated from above (series 1):
Variant,normalised enrichment score
SEAKRRIVFTATT [I11A],4.32
SEAKRAIVFTITT [R6A],1.62
SAAKRRIVFTITT [E2A],5.61
SEAKRRIVFTITA [T13A],4.11
